Assay results pooled from the literature.
Numbered parts are unrelated; each lists some results of a single study. Changes are numbered by the printed parent chain.

Series 1 — method: universal PBM; form: double-stranded DNA, one strand shown; medium: in vitro; concentration: 600 nM; direction: higher = stronger binding; endpoint: E-score
Target: Sal-like protein 4, full length isoform A (SALL4, Homo sapiens, UniProt Q9UJQ4, residues 1-1053)
UniProt Q9UJQ4, sequence (whole entry, looked up): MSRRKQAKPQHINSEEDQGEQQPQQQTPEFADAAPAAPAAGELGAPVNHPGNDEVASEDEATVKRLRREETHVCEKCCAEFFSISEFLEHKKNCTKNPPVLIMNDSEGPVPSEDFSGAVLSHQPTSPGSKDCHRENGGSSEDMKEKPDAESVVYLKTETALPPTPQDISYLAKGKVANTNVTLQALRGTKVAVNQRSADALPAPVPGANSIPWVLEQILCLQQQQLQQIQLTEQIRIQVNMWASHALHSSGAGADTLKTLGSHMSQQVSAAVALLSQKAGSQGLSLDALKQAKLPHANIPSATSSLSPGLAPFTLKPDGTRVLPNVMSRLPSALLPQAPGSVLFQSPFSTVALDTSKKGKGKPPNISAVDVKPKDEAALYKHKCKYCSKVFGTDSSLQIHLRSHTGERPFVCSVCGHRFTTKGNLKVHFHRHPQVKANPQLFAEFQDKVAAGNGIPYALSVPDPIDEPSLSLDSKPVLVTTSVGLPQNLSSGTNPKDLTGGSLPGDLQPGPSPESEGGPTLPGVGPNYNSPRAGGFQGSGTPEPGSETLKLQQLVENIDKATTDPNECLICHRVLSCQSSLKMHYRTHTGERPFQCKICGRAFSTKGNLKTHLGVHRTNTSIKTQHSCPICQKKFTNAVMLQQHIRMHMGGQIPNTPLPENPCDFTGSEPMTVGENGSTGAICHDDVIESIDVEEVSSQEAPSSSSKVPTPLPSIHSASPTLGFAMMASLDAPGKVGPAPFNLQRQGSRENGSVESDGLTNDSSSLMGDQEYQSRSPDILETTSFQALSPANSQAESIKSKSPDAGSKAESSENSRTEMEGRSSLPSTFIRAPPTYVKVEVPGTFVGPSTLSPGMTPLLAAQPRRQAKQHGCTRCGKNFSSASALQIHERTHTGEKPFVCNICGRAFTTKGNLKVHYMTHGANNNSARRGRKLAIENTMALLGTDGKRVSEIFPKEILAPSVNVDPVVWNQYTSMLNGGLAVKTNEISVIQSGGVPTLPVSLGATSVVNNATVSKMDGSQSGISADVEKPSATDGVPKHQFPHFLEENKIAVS
Notes: 8-mer, flanks averaged, mean of replicates
Oligonucleotide = GAATCCCA; result = 0.028
Oligonucleotide = CACTATCA; result = 0.0867
Oligonucleotide = CCAACGTA; result = -0.031
Oligonucleotide = AAAGCTGT; result = 0.0202
Oligonucleotide = CTTCCGTC; result = -0.222
Oligonucleotide = GCACTACC; result = 0.0299
Oligonucleotide = GGCCTTGA; result = -0.186
Oligonucleotide = ACGGACCC; result = -0.281
Oligonucleotide = AGCCCGCA; result = -0.255
Oligonucleotide = ATGGATGA; result = 0.208
Oligonucleotide = GAGATGGA; result = -0.202
Oligonucleotide = GCATAGTA; result = 0.184
Oligonucleotide = CTACACAG; result = 0.0711
Oligonucleotide = ATATTTTG; result = 0.427
Oligonucleotide = CTGAATGA; result = 0.121
Oligonucleotide = CGGCACCC; result = -0.315
Oligonucleotide = GAGTTTGC; result = -0.134
Oligonucleotide = ACTTGTGG; result = -0.0158
Oligonucleotide = CGCAGCCA; result = -0.261

Series 2 — method: DHFR PCA, deep sequencing; medium: yeast; added: (+)-ABA 4.8 µM; reference: wild-type fitted maximum; direction: higher = stronger binding; endpoint: relative binding score
Target: ABI1, truncated, D143A, DHFR fusion (Arabidopsis thaliana)
Notes: methotrexate growth selection, single substitutions
Starting sequence: PYL1, truncated, DHFR fusion (Arabidopsis thaliana); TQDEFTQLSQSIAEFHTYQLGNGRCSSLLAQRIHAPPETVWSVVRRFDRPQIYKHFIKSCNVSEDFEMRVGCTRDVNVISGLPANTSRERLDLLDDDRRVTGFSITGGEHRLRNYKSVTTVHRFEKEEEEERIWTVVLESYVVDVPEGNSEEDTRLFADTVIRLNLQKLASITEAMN; partner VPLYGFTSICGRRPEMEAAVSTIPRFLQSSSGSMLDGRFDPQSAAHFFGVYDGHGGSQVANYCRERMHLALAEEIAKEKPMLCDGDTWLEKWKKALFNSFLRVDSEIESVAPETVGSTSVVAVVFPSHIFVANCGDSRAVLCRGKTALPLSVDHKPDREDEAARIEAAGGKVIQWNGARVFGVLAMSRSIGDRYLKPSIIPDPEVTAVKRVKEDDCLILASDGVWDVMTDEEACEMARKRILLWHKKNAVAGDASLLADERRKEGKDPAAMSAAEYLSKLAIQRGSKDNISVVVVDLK
Variant = F5S; result = 54.5%
Variant = N165M; result = -18.2%
Variant = D3M; result = 62.7%
Variant = I105R; result = -12%
Variant = S80I; result = 22.6%
Variant = E67T; result = 71.2%
Variant = P83D; result = 22%
Variant = T106E; result = 50.3%
Variant = I162V; result = 79.8%
Variant = L138D; result = -7.06%
Variant = V78S; result = 14.6%
Variant = F103W; result = 6.26%
Variant = L20W; result = 51%
Variant = R32K; result = 75%
Variant = E131T; result = 81%
Variant = F15H; result = 62.3%
Variant = T173W; result = -10.4%
Variant = S59Q; result = 58.4%
Variant = Y115R; result = -18.2%
Variant = G102P; result = -15.4%
Variant = F103S; result = -2.5%
Variant = E131D; result = 92.4%
Variant = D144E; result = 29%

Series 3 — method: protein-binding microarray; form: double-stranded DNA, one strand shown; medium: in vitro; concentration: 2200 nM top; notes: 60-bp whole probe; added: salmon DNA 0.4 mg/ml; reference: random background probes; direction: higher = stronger binding; endpoint: fitted relative affinity; all sequences stand within: GCCTAGCAC … GTCTTGATTCGCTTGACGCTGCTG
Target: Interferon regulatory factor 7, full length, phosphomimetic (IRF7, Homo sapiens, UniProt Q92985, residues 1-503, S471D/S472D/S475D/S476D/S477D/S483D/S484D/S487D)
UniProt Q92985, sequence (whole entry, unmodified, looked up): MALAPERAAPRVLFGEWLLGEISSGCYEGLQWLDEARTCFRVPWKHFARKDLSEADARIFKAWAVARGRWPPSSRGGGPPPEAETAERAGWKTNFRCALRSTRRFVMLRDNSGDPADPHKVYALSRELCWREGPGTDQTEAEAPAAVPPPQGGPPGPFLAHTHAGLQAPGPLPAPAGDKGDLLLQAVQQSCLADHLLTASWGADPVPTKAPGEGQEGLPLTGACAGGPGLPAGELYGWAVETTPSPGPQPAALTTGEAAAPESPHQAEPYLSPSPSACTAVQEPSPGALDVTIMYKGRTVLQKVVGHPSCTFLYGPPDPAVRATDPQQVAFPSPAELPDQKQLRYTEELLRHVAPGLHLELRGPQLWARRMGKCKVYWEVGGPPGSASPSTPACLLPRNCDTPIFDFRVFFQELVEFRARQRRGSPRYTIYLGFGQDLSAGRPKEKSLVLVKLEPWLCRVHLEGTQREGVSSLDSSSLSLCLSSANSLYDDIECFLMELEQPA
Oligonucleotide = GACGATTTCAGTCTCGATACGTGCTAG; result = 1.24 z-score
Oligonucleotide = TTAGGTATCGACTTTCGGTGAGTGCTA; result = 1.92 z-score
Oligonucleotide = TCATGTTTGATCTTGATACTGTGCTAG; result = 1.1 z-score
Oligonucleotide = GACGGTATCGAGTTTCGGGACGTGCTA; result = 2.22 z-score
Oligonucleotide = TTAGGCATCGGGTATCGGTTAGTGCTA; result = -0.108 z-score
Oligonucleotide = TCAGCTTTCTCTTTCACACTGTGCTAG; result = 5.84 z-score
Oligonucleotide = TTTCTTTTCATTACTGCATTGTGCTAG; result = 8.14 z-score
Oligonucleotide = TCACGTATCTTCATTGTACTGTGCTAG; result = 1.76 z-score
Oligonucleotide = TTAGGTATCTTTATCCTTTAGTGCTAG; result = 0.664 z-score
Oligonucleotide = GTGTGCATCTATCTTAAATAGTGCTAG; result = 0.223 z-score
Oligonucleotide = GATGGTTTCGGGTTTCGGGACGTGCTA; result = 10 z-score
Oligonucleotide = TACGATTTCAGTTTCGAGACGTGCTAG; result = 5.64 z-score
Oligonucleotide = GACGAACTGGGGTTTCGAGAAGTGCTA; result = 0.374 z-score
Oligonucleotide = GACGATATCAGCTTCGAGACGTGCTAG; result = 0.339 z-score
Oligonucleotide = TTAGATATCAGTCTCGATTTGTGCTAG; result = 1.29 z-score
Oligonucleotide = GCCGGTTCCGGTTTCGGGACGTGCTAG; result = 6.17 z-score
Oligonucleotide = TTAGGACTGGGTTTCGTTTAGTGCTAG; result = 3.05 z-score
Oligonucleotide = AACGGTTTCGACACTGGGGACGTGCTA; result = 3.09 z-score
Oligonucleotide = TTAGGACTGGGTTGCGGTTAGTGCTAG; result = -0.0344 z-score
Oligonucleotide = TCAGCTCCAGGTTCTCTGACTGTGCTA; result = 0.202 z-score
Oligonucleotide = TTAGATCTAAGACTGGATTAGTGCTAG; result = -0.501 z-score
Oligonucleotide = TTAGGTATCGACTTGCGGTTAGTGCTA; result = 1.11 z-score
Oligonucleotide = TCAAATATGAGACTGGGACTGTGCTAG; result = -0.501 z-score
Oligonucleotide = TTAGAACTGGGGTTTCGAGTAGTGCTA; result = 1.1 z-score
Oligonucleotide = TTAGGTTTCCTACTGCATTAGTGCTAG; result = 1.31 z-score

Series 4 — method: protein binding microarray; form: double-stranded DNA, one strand shown; medium: in vitro; concentration: not given; reference: not given; direction: higher = stronger binding; endpoint: E-score
Target: Histone acetyltransferase KAT6A, both winged helices, GST fusion (KAT6A, Homo sapiens, UniProt Q92794, residues 1-181)
Notes: 8-mer, flanks averaged, mean of 2 arrays, mostly near background
Target sequence (chain): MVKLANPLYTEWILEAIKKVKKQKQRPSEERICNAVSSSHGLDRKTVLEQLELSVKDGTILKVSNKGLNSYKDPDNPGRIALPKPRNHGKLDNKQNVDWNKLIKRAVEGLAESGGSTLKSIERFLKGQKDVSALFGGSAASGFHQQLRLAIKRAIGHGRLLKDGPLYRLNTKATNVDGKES
Oligonucleotide = GCCGGGAA; result = 0.168
Oligonucleotide = CCTTTCCC; result = 0.094
Oligonucleotide = CCTGTTTC; result = -0.157
Oligonucleotide = CAAAGCTC; result = -0.121
Oligonucleotide = AGCTAAGG; result = -0.195
Oligonucleotide = CCAGGACG; result = 0.13
Oligonucleotide = CCAGTTAA; result = -0.068
Oligonucleotide = GGTTTTGA; result = -0.0321
Oligonucleotide = AGATGTGA; result = -0.0199
Oligonucleotide = ATCCGAAA; result = 0.0616
Oligonucleotide = ACCCAGAA; result = -0.132
Oligonucleotide = AGACACGA; result = 0.00829
Oligonucleotide = CAAGAGAA; result = -0.0424
Oligonucleotide = CGCGTTAG; result = 0.276
Oligonucleotide = GTATAGAC; result = -0.0899
Oligonucleotide = AAAGGAAG; result = -0.0202
Oligonucleotide = CCGGAACA; result = 0.15
Oligonucleotide = AGTCGAAC; result = 0.0444
Oligonucleotide = AAGCTGAG; result = -0.0514
Oligonucleotide = GCACGACC; result = -0.0858
Oligonucleotide = GTAGCTGA; result = -0.0339

Series 5 — target: CCNA2, cyclin fold, Cln2 fusion (human); method: yeast growth competition, sequencing; medium: yeast; notes: strong parent motif; reference: not given; direction: higher = stronger binding; endpoint: normalised enrichment score
Starting sequence: CENPC docking peptide (human); VKTKKRLNFDDKV; partner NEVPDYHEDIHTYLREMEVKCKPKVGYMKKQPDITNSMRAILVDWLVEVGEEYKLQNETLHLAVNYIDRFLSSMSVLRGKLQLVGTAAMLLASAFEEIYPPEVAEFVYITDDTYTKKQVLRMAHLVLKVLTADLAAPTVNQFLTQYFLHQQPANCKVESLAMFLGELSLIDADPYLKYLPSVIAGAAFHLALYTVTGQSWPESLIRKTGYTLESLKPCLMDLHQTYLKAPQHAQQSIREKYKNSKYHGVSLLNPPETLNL
Variant = V13A; result = 5.73
Variant = K5A; result = 1.27
Variant = R6A; result = 2.83
Variant = N8A; result = 3.74
Variant = K5A L7A; result = 0.627
Variant = K4A; result = 4.15
Variant = K5R F9L; result = 2.66
Variant = D11A; result = 4.39
Variant = F9L; result = 1.15
Variant = T3A; result = 7.24

Series 6 — method: RNA Bind-n-Seq; form: RNA; medium: in vitro; concentration: 365 nM; reference: no-protein control; direction: higher = stronger binding; endpoint: RBNS enrichment (R)
Target: RNA binding protein fox-1 homolog 2, RRM domain, GST-SBP tag (RBFOX2, Homo sapiens, UniProt O43251-10, residues 100-194)
Notes: natural RNA segment, single round, ends assumed
All sequences stand within: GGGAGUUCUACAGUCCGACGAUC … UGGAAUUCUCGGGUGCCAA
Construct (chain): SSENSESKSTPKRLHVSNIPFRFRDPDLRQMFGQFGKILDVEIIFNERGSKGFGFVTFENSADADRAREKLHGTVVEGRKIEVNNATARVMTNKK
Oligonucleotide = UUCCUCAUUGUUGUUUGGUAUGCGCACAGUUCCUGUGGGACUGGGCCGUGAGUUUUCCAUUGGAAAGAAGUUCAGUGGUCCCAUUGUUAACUCAGCCUCAAAUCUCAACU; result = 0.335
Oligonucleotide = AAAACCAAGCUCACGUUUUUCUUAAGGGAAAAAUUUUCUUUCUUAAACUUACAUCUAGCAACUUGGAAAGCACUUUCUCUGGGGAUCUUCUUUUGUAACUUUGCAGACAA; result = 0.553
Oligonucleotide = GGGCCCGGCUGUUAGCACCGUGCUGACUUUCCAUUGGAGACUUGAGUUGGAGAGAGGUGGGUCCUAUUGUAACAACCGCUAUAAUUUAUAUGGACUAUAUUGUCUCCCUG; result = 0.565
Oligonucleotide = CAUGAGCACAGGUGCCUCAUGGCAAACAUGGCUGGCAUGUUCAACUGCAUAAUGCUCUGGCACUGUAUUUUGAAUGACAUUAAUUUAUUAAAUAAAUUGUAUAUAAUCAG; result = 1.13
Oligonucleotide = GUGGUUUGUGACAUGGCAGAUCAGAAGUGCCUCCUUGUAGGUUCAUUGGUCUCUGGAAUAAGUGCCAGCCUUUUUGCCAUAGUUGACUUGCUUCCAUAUUGGAGCUCCUC; result = 0.337
Oligonucleotide = AAUUGUGUUUUGUGUUCACCAUAUACAGAUCAUUUCUCAUCUGUAGUGUGCCCCAAAUGCAGCUUCACUUUCCAGGUACCCUGAUGCAGAAUAAAGUUUUCAUCAUAAAC; result = 0.423
Oligonucleotide = GAUCUCCUGACCUCGUGAUCCGCCCGCCUCGGCCUCCCAAAGUGCUGGGAUUACAGGCGUGAGCCACCGUGCCUGCCCCAGAAUGGUUUUUAAAGCCACAGUUGAGAGGC; result = 0.213
Oligonucleotide = AAUAAUUUGUGGACCAGGGAUUGCUUUUCUGAAGGCAGUAUAGGGAACAUGAAUAUUCAAGAUGAAAUACAAAAAUUAUGUUUAAGGGUCAUAGUGUAUAAGUAGCUUCC; result = 0.43
Oligonucleotide = UGGUUUUGCUUUUUGUAUUGUCUAAUCUCUUUAAUGACUUCAUACUGUGUAAGGAAAAUUACUUUUGUAUUGUUUGUUGGUUAUUUCCAAAAUAACCACCUUGUAAAUAC; result = 0.357
Oligonucleotide = GAUGGAAGUGCAUCCUCUGGGAAAAAGAUAAUGGCUUCUGAUUCAACAUAGCCAUAGUCCUUUGAAGUAAGUGGCUAGAAACAGCACUCUGGUUAUAAUUGCCCCAGGGC; result = 0.404
Oligonucleotide = GACAGAGAACAUGGUCUCCUGCAGGGCCCUGCCUCCCAAGCCCCGCCCUCAGAAAGCCAAGUACCUUUUCAGCUUUUUAACUGCCCCCAUCCCAACCCAGGGAGGCCUGU; result = 0.303
Oligonucleotide = CAUUUCAAAAGAAUUCCCCUCACAGGAGGAUGGCUGAGCAUCAAAGGAGGACAACCAUCUAUAACUUGGUGUCAUUGACAACUAUAUUAAUGUUUAUCCAGCUGCCGUAG; result = 0.41

Repeated from above (series 5):
Variant = V13A; result = 5.73
Variant = K5A; result = 1.27
Variant = R6A; result = 2.83
Variant = N8A; result = 3.74
Variant = K5A L7A; result = 0.627
Variant = K4A; result = 4.15
Variant = K5R F9L; result = 2.66
Variant = D11A; result = 4.39
Variant = F9L; result = 1.15
Variant = T3A; result = 7.24
